# Assay results from different studies.
# Parts stem from different laboratories: compare values within a part only.
# Chain of UniProt P78362 (whole entry, looked up): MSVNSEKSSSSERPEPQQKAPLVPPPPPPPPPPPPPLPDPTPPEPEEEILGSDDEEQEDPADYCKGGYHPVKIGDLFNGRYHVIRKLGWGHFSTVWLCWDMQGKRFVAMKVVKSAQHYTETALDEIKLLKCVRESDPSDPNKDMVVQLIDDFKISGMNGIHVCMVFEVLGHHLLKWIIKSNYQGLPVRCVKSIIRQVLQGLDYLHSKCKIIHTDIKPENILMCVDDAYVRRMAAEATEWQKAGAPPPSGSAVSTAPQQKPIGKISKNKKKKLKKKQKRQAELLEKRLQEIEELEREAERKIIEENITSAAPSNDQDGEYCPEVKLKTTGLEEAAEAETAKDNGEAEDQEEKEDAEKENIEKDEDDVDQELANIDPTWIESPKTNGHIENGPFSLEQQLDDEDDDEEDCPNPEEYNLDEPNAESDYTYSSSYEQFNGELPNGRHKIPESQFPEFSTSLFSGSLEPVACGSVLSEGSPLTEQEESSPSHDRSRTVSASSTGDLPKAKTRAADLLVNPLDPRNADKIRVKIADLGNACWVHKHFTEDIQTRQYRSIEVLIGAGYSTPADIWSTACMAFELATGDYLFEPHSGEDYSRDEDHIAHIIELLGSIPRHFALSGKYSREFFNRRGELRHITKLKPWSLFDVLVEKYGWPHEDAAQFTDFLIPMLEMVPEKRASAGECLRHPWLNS
# Chain of UniProt Q13164 (whole entry, looked up): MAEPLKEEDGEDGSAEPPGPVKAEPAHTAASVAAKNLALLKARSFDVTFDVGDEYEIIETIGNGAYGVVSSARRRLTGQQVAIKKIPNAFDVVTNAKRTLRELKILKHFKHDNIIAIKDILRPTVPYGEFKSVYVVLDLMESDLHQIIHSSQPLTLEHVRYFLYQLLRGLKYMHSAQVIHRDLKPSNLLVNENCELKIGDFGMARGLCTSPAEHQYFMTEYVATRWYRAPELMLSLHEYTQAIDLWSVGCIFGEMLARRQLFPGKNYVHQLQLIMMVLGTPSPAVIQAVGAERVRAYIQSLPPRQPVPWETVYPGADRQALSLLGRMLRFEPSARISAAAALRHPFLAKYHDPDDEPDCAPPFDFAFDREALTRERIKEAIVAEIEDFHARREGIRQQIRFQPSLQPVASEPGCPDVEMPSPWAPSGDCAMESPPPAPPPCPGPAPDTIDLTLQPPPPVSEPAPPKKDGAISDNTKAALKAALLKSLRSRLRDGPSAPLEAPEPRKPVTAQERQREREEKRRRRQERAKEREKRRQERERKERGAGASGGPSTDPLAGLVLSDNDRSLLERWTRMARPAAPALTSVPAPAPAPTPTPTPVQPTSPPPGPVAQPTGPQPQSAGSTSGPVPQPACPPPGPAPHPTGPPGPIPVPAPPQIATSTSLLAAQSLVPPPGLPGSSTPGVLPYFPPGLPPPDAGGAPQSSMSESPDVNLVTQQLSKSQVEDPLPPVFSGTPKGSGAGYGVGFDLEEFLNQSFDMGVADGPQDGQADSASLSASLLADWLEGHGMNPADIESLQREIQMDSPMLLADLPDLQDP
# Chain of UniProt Q96Q40 (whole entry, looked up): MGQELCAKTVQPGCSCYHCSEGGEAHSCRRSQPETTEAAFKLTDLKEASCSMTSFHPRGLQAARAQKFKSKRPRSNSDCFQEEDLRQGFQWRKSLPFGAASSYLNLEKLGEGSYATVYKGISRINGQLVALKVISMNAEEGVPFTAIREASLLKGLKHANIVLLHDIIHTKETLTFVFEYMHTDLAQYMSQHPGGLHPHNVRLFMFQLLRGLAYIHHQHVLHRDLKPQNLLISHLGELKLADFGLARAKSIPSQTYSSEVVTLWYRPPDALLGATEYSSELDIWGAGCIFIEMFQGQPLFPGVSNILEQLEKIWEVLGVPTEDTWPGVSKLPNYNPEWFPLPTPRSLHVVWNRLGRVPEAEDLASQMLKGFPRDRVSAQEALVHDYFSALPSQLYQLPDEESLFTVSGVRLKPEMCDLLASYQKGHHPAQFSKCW
# Chain of UniProt Q86Y07 (whole entry, looked up): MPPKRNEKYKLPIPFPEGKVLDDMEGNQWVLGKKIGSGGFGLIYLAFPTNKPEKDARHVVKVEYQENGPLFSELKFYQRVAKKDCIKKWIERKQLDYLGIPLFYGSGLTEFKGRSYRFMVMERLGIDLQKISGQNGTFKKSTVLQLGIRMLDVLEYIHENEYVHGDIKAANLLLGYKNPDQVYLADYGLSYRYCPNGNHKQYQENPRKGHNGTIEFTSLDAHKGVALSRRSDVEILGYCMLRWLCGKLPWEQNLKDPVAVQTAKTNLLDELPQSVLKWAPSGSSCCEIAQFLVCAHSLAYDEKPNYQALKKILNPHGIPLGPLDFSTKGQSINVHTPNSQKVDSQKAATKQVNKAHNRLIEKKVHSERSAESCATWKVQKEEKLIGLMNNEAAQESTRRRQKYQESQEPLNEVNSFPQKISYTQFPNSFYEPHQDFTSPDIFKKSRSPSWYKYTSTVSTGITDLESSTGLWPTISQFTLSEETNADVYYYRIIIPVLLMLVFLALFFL
# Chain of UniProt Q00526 (whole entry, looked up): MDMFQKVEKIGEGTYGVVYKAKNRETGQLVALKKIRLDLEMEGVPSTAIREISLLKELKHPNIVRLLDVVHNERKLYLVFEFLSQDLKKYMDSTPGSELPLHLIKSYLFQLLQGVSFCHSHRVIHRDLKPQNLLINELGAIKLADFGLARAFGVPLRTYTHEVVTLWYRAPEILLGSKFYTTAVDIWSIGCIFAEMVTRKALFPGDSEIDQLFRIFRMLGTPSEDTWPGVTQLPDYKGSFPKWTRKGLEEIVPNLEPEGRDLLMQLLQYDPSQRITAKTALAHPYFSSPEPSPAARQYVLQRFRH
# Chain of UniProt Q9HAZ1 (whole entry, looked up): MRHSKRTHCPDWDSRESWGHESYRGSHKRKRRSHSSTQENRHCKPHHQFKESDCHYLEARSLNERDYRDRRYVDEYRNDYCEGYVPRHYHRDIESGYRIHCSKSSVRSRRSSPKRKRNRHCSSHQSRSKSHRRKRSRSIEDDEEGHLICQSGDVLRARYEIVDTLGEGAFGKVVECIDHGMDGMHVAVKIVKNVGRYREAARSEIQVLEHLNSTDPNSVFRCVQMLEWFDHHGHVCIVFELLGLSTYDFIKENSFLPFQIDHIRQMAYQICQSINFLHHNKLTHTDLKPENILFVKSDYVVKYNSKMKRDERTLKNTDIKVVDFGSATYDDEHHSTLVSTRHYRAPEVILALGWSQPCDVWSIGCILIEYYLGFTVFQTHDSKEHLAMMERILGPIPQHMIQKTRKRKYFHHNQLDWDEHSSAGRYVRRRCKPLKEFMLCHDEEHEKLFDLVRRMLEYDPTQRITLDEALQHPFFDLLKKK

# Block 1
# Target: Calcium/calmodulin-dependent protein kinase type II subunit alpha (CAMK2A, Homo sapiens, UniProt Q9UQM7)
# Chain of UniProt Q9UQM7 (whole entry, looked up): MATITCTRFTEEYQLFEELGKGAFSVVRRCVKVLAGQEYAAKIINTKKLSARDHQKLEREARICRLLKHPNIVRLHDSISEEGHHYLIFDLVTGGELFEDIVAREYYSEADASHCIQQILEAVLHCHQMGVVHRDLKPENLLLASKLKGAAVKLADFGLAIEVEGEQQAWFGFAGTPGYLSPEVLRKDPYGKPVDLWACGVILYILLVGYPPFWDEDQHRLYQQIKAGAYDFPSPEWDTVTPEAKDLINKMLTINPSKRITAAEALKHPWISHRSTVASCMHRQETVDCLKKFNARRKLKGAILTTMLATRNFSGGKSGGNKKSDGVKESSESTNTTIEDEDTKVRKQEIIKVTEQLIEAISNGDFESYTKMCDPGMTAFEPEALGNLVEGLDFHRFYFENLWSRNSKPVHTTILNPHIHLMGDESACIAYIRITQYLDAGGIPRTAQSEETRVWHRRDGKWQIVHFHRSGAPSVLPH
# Effect on: enzyme activity
# Mode: inhibitor
# Concentration: 10 µM
SMILES,inhibition [%]
CC(=O)OCC(=O)[C@@]12OC3(CCCC3)O[C@@H]1C[C@H]1[C@@H]3CCC4=CC(=O)C=C[C@]4(C)[C@@]3(F)[C@@H](O)C[C@@]12C,4
COc1cc(CCO)ccc1O,4
Cc1cccn2c(=O)c(-c3nnn[nH]3)cnc12,-5
COC(=O)C1=C(C)NC(C)=C(C(=O)OCCN2CCN(C(c3ccccc3)c3ccccc3)CC2)C1c1cccc([N+](=O)[O-])c1 (stereo not shown),-2
CC(C)(C)CC(=O)OCC(=O)[C@@]12OC(C)(C)O[C@@H]1C[C@H]1[C@@H]3CCC4=CC(=O)C=C[C@]4(C)[C@@]3(F)[C@@H](O)C[C@@]12C,-2
CC(C)(C)NC(=O)N[C@H](C(=O)N1C[C@H]2[C@@H]([C@H]1C(=O)NC(CC1CCC1)C(=O)C(N)=O)C2(C)C)C(C)(C)C (stereo partly shown),-1
NS(=O)(=O)c1ccc(C(=O)O)cc1,-9
N#Cc1c(N2C[C@@H]3NCCO[C@H]3C2)c(F)cc2c(=O)c(C(=O)O)cn(C3CC3)c12,-2
NCC(N)C(=O)O (stereo not shown),11
CO[C@@]1(NC(=O)C2SC(=C(C(N)=O)C(=O)O)S2)C(=O)N2C(C(=O)O)=C(CSc3nnnn3C)CS[C@@H]21 (stereo partly shown),-2

# Block 2
# SMILES: CC(C)n1cnc(-c2ccc(F)cc2)c1-c1ncc(C(=O)Nc2ccc(N3CCN(C)CC3)cc2)[nH]1
# Species: IPF patients
setting,any adverse event incidence
"30 mg once daily, without standard of care",85.7%
"60 mg once daily, adverse event, with: standard of care",81.8%
"60 mg once daily, without standard of care",85.7%

# Block 3
# Target: Insulin receptor-related protein (INSRR, Homo sapiens, UniProt P14616)
# Chain of UniProt P14616 (whole entry, looked up): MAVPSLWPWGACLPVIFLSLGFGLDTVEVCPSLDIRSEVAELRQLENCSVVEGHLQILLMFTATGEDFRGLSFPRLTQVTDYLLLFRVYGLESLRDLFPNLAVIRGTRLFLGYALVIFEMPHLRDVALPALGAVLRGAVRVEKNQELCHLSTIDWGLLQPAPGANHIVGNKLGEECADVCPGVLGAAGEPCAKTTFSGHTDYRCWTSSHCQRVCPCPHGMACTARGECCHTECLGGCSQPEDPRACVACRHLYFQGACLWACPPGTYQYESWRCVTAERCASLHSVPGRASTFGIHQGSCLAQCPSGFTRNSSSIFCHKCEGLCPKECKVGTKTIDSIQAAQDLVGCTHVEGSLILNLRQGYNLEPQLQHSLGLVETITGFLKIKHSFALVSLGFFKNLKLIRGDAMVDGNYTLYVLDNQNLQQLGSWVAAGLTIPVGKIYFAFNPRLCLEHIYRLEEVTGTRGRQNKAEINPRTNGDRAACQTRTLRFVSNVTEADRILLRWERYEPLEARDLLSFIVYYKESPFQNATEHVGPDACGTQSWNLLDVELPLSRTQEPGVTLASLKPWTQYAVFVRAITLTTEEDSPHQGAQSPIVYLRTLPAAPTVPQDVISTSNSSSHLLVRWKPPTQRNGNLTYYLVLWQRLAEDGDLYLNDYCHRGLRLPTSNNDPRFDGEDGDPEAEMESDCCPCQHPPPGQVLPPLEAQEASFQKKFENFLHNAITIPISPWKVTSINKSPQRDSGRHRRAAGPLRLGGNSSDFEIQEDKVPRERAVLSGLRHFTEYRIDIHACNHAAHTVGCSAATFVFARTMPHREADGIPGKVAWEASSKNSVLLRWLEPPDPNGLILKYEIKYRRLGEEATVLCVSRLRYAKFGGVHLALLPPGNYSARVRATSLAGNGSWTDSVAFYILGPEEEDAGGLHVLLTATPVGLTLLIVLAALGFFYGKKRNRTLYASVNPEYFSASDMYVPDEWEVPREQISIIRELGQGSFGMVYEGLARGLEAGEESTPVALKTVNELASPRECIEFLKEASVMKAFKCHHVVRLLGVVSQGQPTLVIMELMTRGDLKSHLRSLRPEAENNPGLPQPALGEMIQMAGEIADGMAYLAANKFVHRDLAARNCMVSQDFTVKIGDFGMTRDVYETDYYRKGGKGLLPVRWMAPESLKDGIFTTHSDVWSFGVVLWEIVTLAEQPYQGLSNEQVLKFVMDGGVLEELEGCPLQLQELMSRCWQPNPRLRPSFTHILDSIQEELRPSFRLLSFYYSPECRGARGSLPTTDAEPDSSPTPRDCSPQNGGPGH
# Effect on: enzyme activity
# Mode: inhibitor
# Concentration: 0.5 µM
# Baseline: control
Structure (SMILES),remaining activity [%]
N#C/C(=C\c1ccc(O)c(O)c1)C(=O)NCc1ccccc1,96.3
Nc1cccc(-c2cc3c(Oc4cccc(O)c4)ncnc3[nH]2)c1,96.3
O=C1C(Cl)=C(N2C(=O)CCC2=O)C(=O)c2ccccc21,96.9
Cc1cc2ncc(-c3ccccc3)nc2cc1C,95.5
Ic1cccc(CSc2nnc(-c3ccncc3)o2)c1,98
O=c1cc(-c2cccc3c2Sc2ccccc2S3)oc(N2CCOCC2)c1,98.7
COc1cc2ncnc(Nc3ccc(O)c(Br)c3)c2cc1OC,96.8
CN([C@@H](Cc1ccc(OS(=O)(=O)c2cccc3cnccc23)cc1)C(=O)N1CCN(c2ccccc2)CC1)S(=O)(=O)c1cccc2cnccc12,94.9
COc1cc2c(cc1OC)-c1[nH]nc(Nc3cccc(F)c3)c1C2,99.2
N#Cc1c(NC(=O)c2cccc3ccccc23)sc2c1CCCC2,94.3
CCN(CC)C(=O)c1ccc(Nc2nc(OCC3CCCCC3)c3[nH]cnc3n2)cc1,80.8
Cc1cn(-c2cc(NC(=O)c3ccc(C)c(Nc4nccc(-c5cccnc5)n4)c3)cc(C(F)(F)F)c2)cn1,123
c1ccc(-c2cnc(Nc3ccc(OCCN4CCCC4)cc3)s2)cc1,99.6
O=C(NC(NC(=S)Nc1ccc(F)c([N+](=O)[O-])c1)C(Cl)(Cl)Cl)C(c1ccccc1)c1ccccc1 (stereo not shown),93.8
C[C@@H]1CCN(C(=O)CC#N)C[C@@H]1N(C)c1ncnc2[nH]ccc12,97.5
CN(C)C[C@H]1CCn2c(c(C3=C(c4cn(C)c5ccccc45)C(=O)NC3=O)c3ccccc32)C1,98.7
CCN(CC)CCNC(=O)c1c(C)[nH]c(/C=C2\C(=O)Nc3ccc(Cl)cc32)c1C,4.33
CCN(CC)CCNC(=O)c1c(C)[nH]c(/C=C2\C(=O)Nc3ccc(F)cc32)c1C,21.7
Cn1nc2c3c(cccc31)C(=O)c1ccccc1-2,82.7
Cc1nc2cc3nc(-c4cccs4)cnc3cc2n1C,99.5
O=C1c2ccccc2-c2n[nH]c3cccc1c23,83.1
COc1cc2ncnc(Nc3cccc(Cl)c3)c2cc1OC,99
c1ccc(-c2[nH]ncc2-c2ccnc3ccccc23)nc1,100

# Block 4
# Compound: CCC(=O)N[C@@H]1CC[C@H](C(=O)N(C)c2ccc(-c3nc4ccccc4o3)cc2)C1
# Effect on: cell-free assay
# Method: competition with immobilised ligand
# Concentration: 1 µM
target,remaining binding
"EGFR (Homo sapiens, UniProt P00533, del747-750/T751S)",100%
"ERN1 (Homo sapiens, UniProt O75460)",100%
"SIK2 (Homo sapiens, UniProt Q9H0K1)",100%
"SRPK2 (Homo sapiens, UniProt P78362)",100%
"CASK (Homo sapiens, UniProt O14936)",83%
"HCK (Homo sapiens, UniProt P08631)",100%
"MET (Homo sapiens, UniProt P08581, Y1235D)",100%
"Ribosomal protein S6 kinase alpha-2, N-terminal kinase domain (RPS6KA2, Homo sapiens, UniProt Q15349)",86%
"VRK2 (Homo sapiens, UniProt Q86Y07)",100%
"PIK3CA (Homo sapiens, UniProt P42336, E545K)",75%
"CDC42BPA (Homo sapiens, UniProt Q5VT25)",100%
"Tyrosine-protein kinase ABL1, non-phosphorylated (ABL1, Homo sapiens, UniProt P00519)",76%
"CDK5 (Homo sapiens, UniProt Q00535)",100%
"MAPK7 (Homo sapiens, UniProt Q13164)",100%
"Tyrosine-protein kinase ABL1, phosphorylated (ABL1, Homo sapiens, UniProt P00519, Y253F)",95%
"NEK9 (Homo sapiens, UniProt Q8TD19)",100%
"CDK15 (Homo sapiens, UniProt Q96Q40)",100%
"CDKL5 (Homo sapiens, UniProt O76039)",100%
"CDK3 (Homo sapiens, UniProt Q00526)",100%
"NEK5 (Homo sapiens, UniProt Q6P3R8)",100%
"CLK2 (Homo sapiens, UniProt P49760)",100%
"EPHB1 (Homo sapiens, UniProt P54762)",100%
"CLK4 (Homo sapiens, UniProt Q9HAZ1)",88%
"PIP5K1C (Homo sapiens, UniProt O60331)",100%
"MET (Homo sapiens, UniProt P08581, M1250T)",100%
